# Published values gathered from unrelated publications.
# Each line is one published result; not all experiments were run side by side. “And” joins repeats or separate records; there may be more than shown. ± gives the spread as reported.
SMILES,organism,assay,test system,setting,how to read,measurement,value
CC(C)CC(c1c[nH]c2ccccc12)c1c[nH]c2ccccc12,Clostridioides difficile,"microbial growth, absorbance",,,,IC50,> 50000 nM
Cc1cccc2c1N(C(=O)n1ccnn1)CC2,Arabidopsis thaliana,,"wild type, seeds","30 µM, high ambient temperature",,germination rate,82.4% and 17.4% and 72.4% and 73.2% and 82.8% and 59.4%
N=C(N)NCCC[C@@H]1NC(=O)[C@H](CCCNC(=N)N)NC(=O)[C@@H](CCCNC(=N)N)NC(=O)[C@@H](CCCNC(=N)N)NC(=O)[C@@H](C(c2ccccc2)c2ccccc2)NC(=O)[C@H](Cc2c[nH]c3ccccc23)NC(=O)[C@@H](C(c2ccccc2)c2ccccc2)NC1=O,Candida albicans,,SC5314,,,MIC,16 µg/mL
C=C(NC(=O)c1csc(-c2nc3c(cc2O)-c2nc(cs2)C(=O)NC(C(C)O)C(=O)NC(=C(C)OC)c2nc(cs2)C(=O)NC2c4nc(cs4)C(=O)NC(COC(=O)c4c5c6c(cccc6n4O)COC(=O)C(OC4CC(C)(O)C(N(C)C)C(C)O4)C2OC5)c2nc-3cs2)n1)C(N)=O (stereo not drawn),Streptococcus pneumoniae,,"-25, immunocompromised mice, lung infection","8 mg/kg/day, twice daily, 24 h post-dose",,lung bacterial load,3.8 log CFU/g
COC(=O)c1cnc(-c2cnccn2)cc1C(=O)OC.COC(=O)c1cnc(-c2cnccn2)cc1C(=O)OC.F[P-](F)(F)(F)(F)F.[Ag+],Candida albicans,"biofilm formation, crystal violet staining",ATCC 10231,0.87 µg/mL,,inhibition,36 ± 3%
CC1(C)[C@H](NC(=O)/C(=N\OCC(=O)N2CCC(C(=O)O)C2)c2nsc(N)n2)C(=O)N1OS(=O)(=O)O (stereo partly drawn),Providencia rettgeri,agar dilution,"ATCC 31052, susceptible",,,MIC,0.25 µg/mL
CN(Cc1ccc(C2(C(F)(F)F)CCC2)cc1)Cc1cccc2ccccc12,Trichophyton mentagrophytes,"microbial growth, disc diffusion",ATCC18748,"0.064 µg/mL, 72 h",,inhibition zone,27.8 mm
C#CCO/N=C(\C(=O)N[C@@H]1C(=O)N(OS(=O)(=O)O)C1(C)C)c1nsc(N)n1,Citrobacter freundii,agar dilution,"ATCC 43864, susceptible",,,MIC,8 µg/mL
CCCCCCCCCC(=O)N[C@@H](Cc1c[nH]c2ccccc12)C(=O)N[C@H](CC(N)=O)C(=O)N[C@@H](CC(=O)O)C(=O)N[C@@H]1C(=O)NCC(=O)N[C@@H](CCCNC(=O)OC2/C=C/CCCCC2)C(=O)N[C@@H](CC(=O)O)C(=O)N[C@H](C)C(=O)N[C@@H](CC(=O)O)C(=O)NCC(=O)N[C@H](CO)C(=O)N[C@@H]([C@H](C)CC(=O)O)C(=O)N[C@@H](CC(=O)c2ccccc2N)C(=O)O[C@@H]1C (stereo partly drawn),Staphylococcus aureus,"planktonic bacterial growth, isothermal microcalorimetry",MRSA,"3.0 µg/mL, 24 h, 37 °C",,peak heat flow,0 µW
Cc1cc(C(=O)Nc2nc3cccc(C)c3n2[C@H]2CCCCN(C(=O)/C=C/CN(C)C)C2)ccn1,Trypanosoma brucei brucei,,Lister 427,"50 µM, 6 h, kill kinetics",,proliferation,3.86% and 4.93% and 2.17% and 3.31% and 2.77%
C=C[C@]1(C)C[C@@H](OC(=O)CSc2ccc(NC(=O)c3ccco3)cc2)[C@]2(C)[C@H](C)CC[C@]3(CCC(=O)[C@H]32)[C@@H](C)[C@@H]1O,Mycoplasma gallisepticum,,"infected chickens, lung","intramuscular, 50 mg/kg daily x3, 72 h",baseline: 0 h,lung mycoplasma load reduction,2.08 log10 CFU/mL and 1.84 log10 CFU/mL and 1.59 log10 CFU/mL and 1.08 log10 CFU/mL and 1.03 log10 CFU/mL and 1.39 log10 CFU/mL and 1.73 log10 CFU/mL and 1.45 log10 CFU/mL
CCC1(CC)CC(=O)N(C2c3cc(C(=O)NC4c5ccccc5CC4O)ccc3OC2(C)COC)C(=N)N1 (stereo not drawn),Plasmodium vivax,invasion of reticulocytes,field isolates,ex vivo,,EC50,< 1 nM
Cc1ccc(N(C)C(=O)[C@H](Cc2ccccc2)NC(=O)Cc2c[nH]c3ccc(O)cc23)cc1,human immunodeficiency virus 1,viral replication,NL4-3 with subtype AG gag/pol,,,EC50,100 ± 30 nM
O=C1/C(=C(O)/C=C/c2ccccc2)C(=O)[C@@]2(C(=O)OC3CCCCC3)CS[C@H](c3ccccc3)N12,Streptomyces,"bacterial growth, broth dilution",Mueller-Hinton broth,"24 h, 35 °C",,MIC,1.95 µg/mL
c1ccc(CN2CCOCCOCCN(CCCCCCCCCCCCN3CCOCCOCCN(CCCCCCCCCCCCN4CCOCCOCCN(Cc5ccccc5)CCOCCOCC4)CCOCCOCC3)CCOCCOCC2)cc1,Klebsiella pneumoniae,,ATCC BAA-2146,"half MIC, with: tetracycline",,tetracycline MIC,125 ± 25 µM
CC(C)(C)NCC(SS(=O)(=O)O)c1ccccc1 (stereo not drawn),Schistosoma mansoni,perfusion day 57,infected Swiss Webster mice,"200 mg/kg daily x4, dosing from day 7",,liver weight,1.73 g and 2.04 g and 1.89 g and 1.65 g and 2.38 g
COC(=O)[C@H](C)NC(=O)c1ccccc1NC(=O)[C@H](Cc1ccc(OC(C)(C)C)cc1)N(C)C(=O)[C@@H](NC(=O)OCc1ccccc1)C(C)C,Candida albicans,"potentiator, broth microdilution",ATCC 90029,"4.0 µg/mL, with: amphotericin B",baseline: amphotericin B alone,fold potentiation,32
CNCc1ccc2c(c1)N(C(=O)OCc1c(F)c(F)c(F)c(F)c1F)[C@H](CNC(=N)N)[C@H]2NC(=O)C(=O)Nc1ccc(Cl)c(F)c1,HIV-1,"pseudovirus infection, Env pseudovirus neutralisation","TZM-bl, clade C",,,IC50,587 nM
CN(C(=O)[C@H](Cc1ccccc1)NC(=O)Cc1c[nH]c2ccc(O)cc12)c1ccc(Cl)cc1,human immunodeficiency virus 1,viral replication,NL4-3 with subtype B gag/pol,,,EC50,26 ± 5 nM
O=Cc1c[nH]c2ccccc12,Clostridioides difficile,"microbial growth, absorbance",,,,IC50,> 50000 nM
COC1C=COC2(C)Oc3c(C)c(O)c4c(c3C2=O)C2=NC3(CCN(CC(C)C)CC3)NC2=C(NC(=O)C(C)=CC=CC(C)C(O)C(C)C(O)C(C)C(OC(=O)Nc2cccnn2)C1C)C4=O (stereo not drawn),Mycobacteroides abscessus,bacterial growth,subsp. massiliense clinical isolate,slow grower,,IC50,9 nM
NCc1ccc(NC(=O)c2cc(-c3ccccc3)n(-c3ccccc3)n2)cc1,Dengue virus,"viral replication, inhibitor, imaging","Vero, DENV2",12.5 µM,,inhibition,< 50%
CC1C=CC=CC(C)C2C=CC3CC(C)(O)C(Cl)C(C)C3C2C(=O)C(Cl)(Cl)C(=O)C(C)C(=O)O1 (stereo not drawn),Staphylococcus aureus,,MSSA and MRSA clinical isolates,180 isolates,,MIC50,0.1 µg/mL
CCCCNCCO.O=C(O)C(Cl)Cl,Xanthium sibiricum,,,"15 mg/mL, 21 days, post-emergence, greenhouse",,herbicidal inhibition,0%

# For quick reference, copied from above:
SMILES,organism,assay,test system,setting,how to read,measurement,value
O=Cc1c[nH]c2ccccc12,Clostridioides difficile,"microbial growth, absorbance",,,,IC50,> 50000 nM
COC1C=COC2(C)Oc3c(C)c(O)c4c(c3C2=O)C2=NC3(CCN(CC(C)C)CC3)NC2=C(NC(=O)C(C)=CC=CC(C)C(O)C(C)C(O)C(C)C(OC(=O)Nc2cccnn2)C1C)C4=O (stereo not drawn),Mycobacteroides abscessus,bacterial growth,subsp. massiliense clinical isolate,slow grower,,IC50,9 nM
NCc1ccc(NC(=O)c2cc(-c3ccccc3)n(-c3ccccc3)n2)cc1,Dengue virus,"viral replication, inhibitor, imaging","Vero, DENV2",12.5 µM,,inhibition,< 50%
